Published values pooled from the literature.
Parts stem from different laboratories: compare values within a part only.
Sequence of UniProt P54756 (whole entry, looked up): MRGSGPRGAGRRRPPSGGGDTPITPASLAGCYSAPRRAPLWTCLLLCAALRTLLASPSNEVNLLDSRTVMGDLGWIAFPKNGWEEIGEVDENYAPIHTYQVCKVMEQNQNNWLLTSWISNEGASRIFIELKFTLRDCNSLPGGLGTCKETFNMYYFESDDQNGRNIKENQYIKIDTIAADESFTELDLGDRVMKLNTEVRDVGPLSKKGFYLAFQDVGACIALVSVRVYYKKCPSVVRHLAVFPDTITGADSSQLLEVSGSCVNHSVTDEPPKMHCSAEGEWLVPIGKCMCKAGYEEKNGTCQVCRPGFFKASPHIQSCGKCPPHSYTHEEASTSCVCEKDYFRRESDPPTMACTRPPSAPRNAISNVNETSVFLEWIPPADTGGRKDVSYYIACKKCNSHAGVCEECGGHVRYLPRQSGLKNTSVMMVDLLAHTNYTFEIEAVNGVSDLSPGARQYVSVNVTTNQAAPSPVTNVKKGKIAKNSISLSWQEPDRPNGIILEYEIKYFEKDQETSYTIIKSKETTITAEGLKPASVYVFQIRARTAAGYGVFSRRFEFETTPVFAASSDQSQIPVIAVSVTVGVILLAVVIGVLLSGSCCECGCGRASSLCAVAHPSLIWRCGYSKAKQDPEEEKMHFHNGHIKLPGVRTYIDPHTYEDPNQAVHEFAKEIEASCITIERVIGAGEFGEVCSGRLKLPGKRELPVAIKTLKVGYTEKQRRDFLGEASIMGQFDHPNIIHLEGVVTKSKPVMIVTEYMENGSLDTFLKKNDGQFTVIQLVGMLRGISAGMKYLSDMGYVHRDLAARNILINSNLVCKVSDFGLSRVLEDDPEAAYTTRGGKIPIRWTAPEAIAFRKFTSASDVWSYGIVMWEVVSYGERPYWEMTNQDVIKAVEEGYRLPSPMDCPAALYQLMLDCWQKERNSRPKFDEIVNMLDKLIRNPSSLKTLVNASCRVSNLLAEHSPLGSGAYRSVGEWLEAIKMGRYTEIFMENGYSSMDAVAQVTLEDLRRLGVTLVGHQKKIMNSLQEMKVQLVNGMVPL

Block 1
Target: Prothrombin, mature alpha-thrombin (F2, Homo sapiens, UniProt P00734)
Technique: aptamer microarray, sandwich
Form: DNA with 2'F-ANA
Medium: in vitro
Concentration: 200 nM
Setting: whole 15-mer aptamer, many near background
With: Cy3 exosite-II aptamer, 400 nM
Direction: higher = stronger binding
Oligonucleotide: GGTTGGTGTGGTTGG
| Modification | mean fluorescence intensity |
| --- | --- |
| 2'F-ANA at 1 2 3 7 8 10 11 12 13 15 | 130 a.u. |
| 2'F-ANA at 2 3 5 7 8 9 10 13 | 82.8 a.u. |
| 2'F-ANA at 1 3 4 5 6 12 | 100 a.u. |
| 2'F-ANA at 1 2 3 4 6 7 8 9 11 12 15 | 220 a.u. |
| 2'F-ANA at 1 4 7 8 9 12 13 15 | 214 a.u. |
| 2'F-ANA at 3 5 7 11 | 119 a.u. |
| 2'F-ANA at 1 3 11 13 | 303 a.u. |
| 2'F-ANA at 1 2 4 5 6 7 8 9 10 13 | 49.8 a.u. |

Block 2
Target: Max-binding protein MNT, bHLH-zipper, MAX partner unstated (MNT, Homo sapiens, UniProt Q99583, residues 220-300)
Technique: protein-binding microarray
Form: double-stranded DNA, one strand shown
Medium: in vitro
Concentration: not given
Setting: k-mer, scored over probes, only values ≥0.25
Direction: higher = stronger binding
Construct (chain): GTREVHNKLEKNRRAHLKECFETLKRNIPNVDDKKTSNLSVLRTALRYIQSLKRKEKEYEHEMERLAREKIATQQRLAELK
| Oligonucleotide | E-score |
| --- | --- |
| ATATGGCA | 0.262 |
| CCGACACG | 0.252 |
| CATGCAGA | 0.289 |
| GACACGCA | 0.304 |
| GGTGCGCA | 0.286 |
| CCCCGTGA | 0.352 |
| ACCATGCT | 0.409 |
| CCCATGGG | 0.279 |

Single results of other studies
| Molecule | target | assay | system | conditions | how to read | endpoint | result |
| --- | --- | --- | --- | --- | --- | --- | --- |
| CN1CCN(c2ccc3nc(-c4c(N)c5c(F)cccc5[nH]c4=O)[nH]c3c2)CC1 | Ephrin type-A receptor 5 (EPHA5, Homo sapiens, UniProt P54756) | enzyme activity, inhibitor |  | 0.5 µM | reference: control | remaining activity | 99.1% |
| PhoQ, residues 284 288 289 292 302 303 SSCLAV | PhoP, residues 12 14 15 18 19 HEGLL (Escherichia coli, UniProt P23836) | Sort-seq, item: YFP reporter | E. coli | PhoQ-PhoP variant library, with: 10 µM Mg2+ | reference: high Mg2+ state, higher = stronger signaling | fold induction | 1.83 |

Excerpt of the above (block 1):
| Modification | mean fluorescence intensity |
| --- | --- |
| 2'F-ANA at 1 3 11 13 | 303 a.u. |
